Results collected from several papers.
Each numbered part is a random draw from the data of one study; scales do not carry over between parts.

Block 1
Target: Histone acetyltransferase KAT6A, winged helix 2, GST fusion (KAT6A, Homo sapiens, UniProt Q92794, residues 85-181)
Technique: protein binding microarray
Form: double-stranded DNA, one strand shown
Matrix: in vitro
Tested at: not given
Setting: 8-mer, flanks averaged, mean of 2 arrays, mostly near background
Baseline: not given
Direction: higher = stronger binding
Residues (chain): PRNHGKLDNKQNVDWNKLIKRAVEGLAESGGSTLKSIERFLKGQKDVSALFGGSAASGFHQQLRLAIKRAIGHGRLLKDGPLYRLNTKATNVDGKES
| Oligonucleotide | E-score |
| --- | --- |
| GTCTCAAA | -0.155 |
| CCTAGATA | -0.188 |
| AGTGATGC | -0.0481 |
| AAGGACCG | 0.0199 |
| AGTGGCAT | 0.107 |
| CCCAGTGC | 0.129 |

Block 2
Target: Interferon regulatory factor 3, full length, phosphomimetic (IRF3, Homo sapiens, UniProt Q14653, residues 1-427, S386D/S396D/S398D/S402D/T404D/S405D)
Technique: protein-binding microarray
Form: double-stranded DNA, one strand shown
Matrix: in vitro
Tested at: 2540 nM top
Setting: 60-bp whole probe
Added: salmon DNA 0.4 mg/ml
Baseline: random background probes
Direction: higher = stronger binding
Constant ends, left off below: GCCTAGCAC … GTCTTGATTCGCTTGACGCTGCTG
Residues (chain): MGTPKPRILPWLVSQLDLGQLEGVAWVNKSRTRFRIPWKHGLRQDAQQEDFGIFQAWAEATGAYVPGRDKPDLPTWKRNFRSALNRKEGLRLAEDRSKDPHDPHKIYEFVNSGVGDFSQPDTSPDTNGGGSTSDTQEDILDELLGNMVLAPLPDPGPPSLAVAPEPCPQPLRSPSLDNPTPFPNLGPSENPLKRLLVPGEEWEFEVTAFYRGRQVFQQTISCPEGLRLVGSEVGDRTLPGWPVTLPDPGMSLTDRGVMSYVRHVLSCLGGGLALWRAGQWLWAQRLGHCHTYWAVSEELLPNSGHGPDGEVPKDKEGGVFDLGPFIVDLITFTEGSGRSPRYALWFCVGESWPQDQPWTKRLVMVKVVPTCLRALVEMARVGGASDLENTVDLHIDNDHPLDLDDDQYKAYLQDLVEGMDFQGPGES
| Oligonucleotide | fitted relative affinity [z-score] |
| --- | --- |
| TTAGGTATCGGGTTTAGGTTAGTGCTA | 1.96 |
| TTAGGTTCCGGTTTCGGCTAGTGCTAG | 6.11 |
| CTAGGTATCGGGTTTCGGTTAGTGCTA | 3.83 |
| CCTAGTTGTACTTTCTATCTGTGCTAG | 2.47 |
| GACGGTTTCGACTTTCGGGACGTGCTA | 4.12 |
| TTAGGACTGGTTTTCGGTTAGTGCTAG | 1.65 |
| TTAGGACTGGGTCTCGTTTAGTGCTAG | -0.439 |
| GACGGTTTCGGGTTTCGGGACGTGCTA | 5.76 |
| TTAGATATCGGGACTGTATTAGTGCTA | 0.0986 |
| TCACTTTGCTTTCTCCCACTGTGCTAG | 2.4 |
| TTTGGACTGGACACTGGGTTAGTGCTA | -0.531 |
| AACGGTCTCCTTCTCCTGACGTGCTAG | 4 |
| TTAGATTTCGGGGCTGGATTAGTGCTA | 0.297 |
| GACGATATCAGTATCGAGATGTGCTAG | 1.23 |

Block 3
Target: Max-binding protein MNT, bHLH-zipper, MAX partner unstated (MNT, Homo sapiens, UniProt Q99583, residues 220-300)
Technique: protein-binding microarray
Form: double-stranded DNA, one strand shown
Matrix: in vitro
Tested at: not given
Setting: k-mer, scored over probes, only values ≥0.25
Direction: higher = stronger binding
Residues (chain): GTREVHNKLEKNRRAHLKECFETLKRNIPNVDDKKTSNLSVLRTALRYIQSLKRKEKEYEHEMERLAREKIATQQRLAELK
| Oligonucleotide | E-score |
| --- | --- |
| ACTGCATG | 0.311 |
| CCTCATGA | 0.279 |
| ATGCGCGA | 0.269 |
| ATGGCACC | 0.252 |
| AGCGTGCA | 0.412 |
| ACCCCGTG | 0.406 |
| CACATGCA | 0.443 |
| GTGGGGAA | 0.3 |

Mixed results
| Molecule | target | test | system | conditions | scale | quantity | value |
| --- | --- | --- | --- | --- | --- | --- | --- |
| PhoQ, residues 284 288 289 292 302 303 SSCCRF | PhoP, residues 12 14 15 18 19 QWHVF (Escherichia coli, UniProt P23836) | Sort-seq, measured: YFP reporter | E. coli | PhoQ-PhoP variant library, added: 10 µM Mg2+ | baseline: high Mg2+ state, higher = stronger signaling | fold induction | 9.44 |

Excerpt of the above (block 2):
| Oligonucleotide | fitted relative affinity [z-score] |
| --- | --- |
| TTAGATTTCGGGGCTGGATTAGTGCTA | 0.297 |
| GACGGTTTCGGGTTTCGGGACGTGCTA | 5.76 |
| AACGGTCTCCTTCTCCTGACGTGCTAG | 4 |
| TCACTTTGCTTTCTCCCACTGTGCTAG | 2.4 |
